Values quoted from earlier work that unrelated publications cite.
Each line is one published result; not all experiments were run side by side. Numbers after ± are the reported error.
JAK1 JH2 pseudokinase domain: Tyrosine-protein kinase JAK1, JH2 pseudokinase domain (JAK1, Homo sapiens, UniProt P23458)
UniProt P23458, sequence (whole entry, looked up): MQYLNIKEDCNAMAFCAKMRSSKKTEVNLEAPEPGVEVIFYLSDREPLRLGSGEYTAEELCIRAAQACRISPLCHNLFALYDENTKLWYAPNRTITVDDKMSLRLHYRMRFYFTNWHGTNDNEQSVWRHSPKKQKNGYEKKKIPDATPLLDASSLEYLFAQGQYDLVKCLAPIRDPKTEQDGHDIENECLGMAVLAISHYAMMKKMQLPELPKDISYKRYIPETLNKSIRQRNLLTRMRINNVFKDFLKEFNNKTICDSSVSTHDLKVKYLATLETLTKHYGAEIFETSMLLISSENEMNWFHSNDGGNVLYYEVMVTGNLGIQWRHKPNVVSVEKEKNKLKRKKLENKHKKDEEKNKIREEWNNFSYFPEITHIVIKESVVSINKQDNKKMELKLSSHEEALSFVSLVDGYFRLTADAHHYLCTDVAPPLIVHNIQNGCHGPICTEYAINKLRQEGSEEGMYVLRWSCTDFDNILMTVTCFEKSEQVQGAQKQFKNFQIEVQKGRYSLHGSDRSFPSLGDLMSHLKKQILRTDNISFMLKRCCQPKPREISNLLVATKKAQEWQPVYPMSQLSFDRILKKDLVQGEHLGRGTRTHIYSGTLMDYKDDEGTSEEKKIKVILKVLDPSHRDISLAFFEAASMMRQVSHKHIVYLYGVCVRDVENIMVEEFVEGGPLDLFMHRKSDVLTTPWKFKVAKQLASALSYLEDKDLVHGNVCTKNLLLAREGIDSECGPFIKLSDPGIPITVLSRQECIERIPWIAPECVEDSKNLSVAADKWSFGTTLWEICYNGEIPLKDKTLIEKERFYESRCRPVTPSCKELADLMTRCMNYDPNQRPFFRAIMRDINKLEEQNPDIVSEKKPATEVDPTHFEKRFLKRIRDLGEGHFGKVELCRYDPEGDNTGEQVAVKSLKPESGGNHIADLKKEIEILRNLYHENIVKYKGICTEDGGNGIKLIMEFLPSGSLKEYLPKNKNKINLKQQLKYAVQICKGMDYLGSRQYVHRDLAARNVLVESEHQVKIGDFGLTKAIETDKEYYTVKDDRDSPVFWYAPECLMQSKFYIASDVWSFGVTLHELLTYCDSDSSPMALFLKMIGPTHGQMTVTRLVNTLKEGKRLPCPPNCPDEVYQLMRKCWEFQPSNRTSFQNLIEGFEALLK
UniProt Q96KQ7, sequence (whole entry, looked up): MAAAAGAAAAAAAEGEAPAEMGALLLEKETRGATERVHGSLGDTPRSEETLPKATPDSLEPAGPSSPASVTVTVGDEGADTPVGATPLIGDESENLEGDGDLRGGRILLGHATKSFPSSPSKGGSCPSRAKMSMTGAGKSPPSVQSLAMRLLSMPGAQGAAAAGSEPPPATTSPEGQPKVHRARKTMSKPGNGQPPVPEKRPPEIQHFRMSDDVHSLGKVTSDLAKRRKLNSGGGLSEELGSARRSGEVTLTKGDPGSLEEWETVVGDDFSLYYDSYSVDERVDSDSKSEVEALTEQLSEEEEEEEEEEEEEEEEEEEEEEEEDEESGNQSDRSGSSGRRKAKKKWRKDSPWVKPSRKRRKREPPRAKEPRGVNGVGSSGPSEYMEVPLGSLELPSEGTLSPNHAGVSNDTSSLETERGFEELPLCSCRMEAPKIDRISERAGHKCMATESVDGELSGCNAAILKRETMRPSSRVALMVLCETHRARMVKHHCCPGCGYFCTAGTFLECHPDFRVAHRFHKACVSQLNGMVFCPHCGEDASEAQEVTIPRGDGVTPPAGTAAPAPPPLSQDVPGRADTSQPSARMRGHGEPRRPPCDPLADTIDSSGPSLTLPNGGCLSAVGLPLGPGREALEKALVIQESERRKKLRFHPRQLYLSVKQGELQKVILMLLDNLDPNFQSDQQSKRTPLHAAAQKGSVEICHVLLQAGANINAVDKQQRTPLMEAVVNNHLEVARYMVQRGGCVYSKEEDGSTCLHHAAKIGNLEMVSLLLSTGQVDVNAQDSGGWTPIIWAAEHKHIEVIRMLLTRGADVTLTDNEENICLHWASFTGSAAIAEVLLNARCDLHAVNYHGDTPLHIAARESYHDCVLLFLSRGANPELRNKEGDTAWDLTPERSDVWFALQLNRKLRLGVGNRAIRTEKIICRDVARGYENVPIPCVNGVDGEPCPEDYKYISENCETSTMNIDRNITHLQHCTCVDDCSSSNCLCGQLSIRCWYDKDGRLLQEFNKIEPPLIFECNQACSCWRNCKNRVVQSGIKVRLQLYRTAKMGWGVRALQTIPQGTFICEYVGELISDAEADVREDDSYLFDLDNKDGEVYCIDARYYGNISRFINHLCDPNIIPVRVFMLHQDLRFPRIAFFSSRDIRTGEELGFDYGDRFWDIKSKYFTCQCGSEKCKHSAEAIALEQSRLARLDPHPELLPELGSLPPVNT
UniProt P43140, sequence (whole entry, looked up): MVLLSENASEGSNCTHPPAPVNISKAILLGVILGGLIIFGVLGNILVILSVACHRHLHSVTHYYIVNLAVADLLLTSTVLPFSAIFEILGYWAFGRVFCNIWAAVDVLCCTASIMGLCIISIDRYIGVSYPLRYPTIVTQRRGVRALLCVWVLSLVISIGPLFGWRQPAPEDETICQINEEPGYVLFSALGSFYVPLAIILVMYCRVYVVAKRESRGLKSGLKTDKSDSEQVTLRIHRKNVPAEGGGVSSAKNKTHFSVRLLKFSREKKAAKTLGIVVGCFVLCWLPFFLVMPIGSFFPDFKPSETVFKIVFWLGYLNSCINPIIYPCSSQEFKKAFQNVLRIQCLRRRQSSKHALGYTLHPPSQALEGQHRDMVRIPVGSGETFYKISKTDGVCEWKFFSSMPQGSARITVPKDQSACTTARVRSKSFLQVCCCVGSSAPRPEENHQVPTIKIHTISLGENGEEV
UniProt P0DMS8, sequence (whole entry, looked up): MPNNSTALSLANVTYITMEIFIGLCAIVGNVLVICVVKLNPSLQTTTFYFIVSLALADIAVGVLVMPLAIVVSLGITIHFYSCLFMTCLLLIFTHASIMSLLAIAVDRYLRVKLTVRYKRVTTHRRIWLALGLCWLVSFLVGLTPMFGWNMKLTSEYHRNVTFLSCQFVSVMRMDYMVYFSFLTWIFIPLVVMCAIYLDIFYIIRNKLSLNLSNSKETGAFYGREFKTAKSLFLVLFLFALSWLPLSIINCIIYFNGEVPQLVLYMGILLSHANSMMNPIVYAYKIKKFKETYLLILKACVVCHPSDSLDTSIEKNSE

| Compound | target or system | assay | system | conditions | scale | quantity | result |
| --- | --- | --- | --- | --- | --- | --- | --- |
| O=C1CC[C@H](N2Cc3cc(N4CCN(CC5CCN(c6ccc([C@@H]7c8ccc(O)cc8CC[C@@H]7c7ccccc7)cc6)CC5)CC4)ccc3C2=O)C(=O)N1 | Estrogen receptor (ESR1, Homo sapiens, UniProt P03372) | degrader | human patients, paired tumour biopsies | 200 mg once daily |  | average degradation | 71% |
| CCN(c1cc(-c2ccc(CN3CCOCC3)cc2)cc(C(=O)NCc2c(C)cc(C)[nH]c2=O)c1C)C1CCOCC1 | EHMT2 (Homo sapiens, UniProt Q96KQ7) | enzyme activity, inhibitor |  | 1 µM |  | inhibition | 7 ± 3% |
| Cc1c(CN2CCN(C(=O)[C@H](C)O)CC2)sc2c(N3CCOCC3)nc(-c3cnc(N)nc3)nc12 | JAK1 JH2 pseudokinase domain | KinomeScan competition binding |  | 10 µM |  | remaining binding | 0% |
| COc1cc2nc(N3CCN(C(=O)c4ccco4)CC3)nc(N)c2cc1OC | Adra1a (Rattus norvegicus, UniProt P43140) | binding |  |  |  | Hill coefficient | 0.9 |
| Nc1cc(C(F)(F)F)c(-c2nc(N3CCOCC3)nc(N3CCOCC3)n2)cn1 | NLK (Homo sapiens, UniProt Q9UBE8) | enzyme activity |  | 10 µM | relative to: untreated | remaining activity | 99% |
| CNC(=O)[C@H]1O[C@@H](n2cnc3c(NCc4cccc(I)c4)ncnc32)[C@H](O)[C@@H]1O | ADORA3 (Homo sapiens, UniProt P0DMS8) |  |  | historical reference value |  | Hill coefficient | 0.8 |
| Nc1ncnc2c1ncn2[C@@H]1O[C@H](COP(=O)(O)OP(=O)(O)O)[C@@H](O)[C@H]1O | MiD51 |  |  | concentration not given |  | binding | binds |
| Cc1cc(NC(=O)c2cccc(NC(=O)/C=C/CN(C)C)c2)ccc1Nc1nccc(-c2cccnc2)n1 | TTK (Homo sapiens, UniProt P33981) | enzyme activity, inhibitor |  | 1 µM | relative to: vehicle | remaining activity | 46% |
| CNC(C)C1CCC(N)C(OC2C(N)CC(N)C(OC3OCC(C)(O)C(NC)C3O)C2O)O1 (stereo not shown) | Escherichia coli |  | clinical isolate RKI-No_607/16 |  |  | MIC | > 8 µg/mL |
| CC(=O)N[C@@H](COP(=O)(O)O)C(=O)N1CCC[C@H]1C(=O)N[C@@H](C)C(=O)N[C@@H](Cc1ccccc1)C(N)=O | Breast cancer type 1 susceptibility protein, tandem BRCT domains (BRCA1, Homo sapiens, UniProt P38398) | isothermal titration calorimetry |  |  |  | −TΔS | 8.8 ± 1.4 kcal/mol |
| Cc1cccc2cc3ccc4cccc5ccc(c12)c3c45 | Ahr (Rattus norvegicus, UniProt P41738) |  |  | 50% effect level | relative to: benzo[a]pyrene | relative potency | 1.2 |
| CC(C)(O/N=C(\C(=O)N[C@@H]1C(=O)N2C(C(=O)[O-])=C(C[N+]3(CCNC(=O)c4ccc(O)c(O)c4Cl)CCCC3)CS[C@H]12)c1csc(N)n1)C(=O)O | KPC-33 | hydrolysis by enzyme, substrate |  |  |  | Km | 3 µM |
| Cc1nc(NC(=O)N2CCC[C@H]2C(N)=O)sc1-c1ccnc(C(C)(C)C(F)(F)F)c1 | JAK1 JH2 pseudokinase domain | KinomeScan competition binding |  | 10 µM |  | remaining binding | 100% |
| CC1(C)S[C@@H]2[C@H](NC(=O)[C@H](N)c3ccccc3)C(=O)N2[C@H]1C(=O)O | Escherichia coli |  | clinical isolate RKI-No_607/16 |  |  | MIC | > 16 µg/mL |
| C=CC(=O)N1CCC(C(=O)NCC(=O)N2CCN(c3nc(-c4cnc(N)nc4C(F)F)nc(N4CCOCC4)n3)CC2)CC1 | PIK3CG (Homo sapiens, UniProt P48736) | kinase activity |  | 1 µM |  | remaining activity | 0.1% |
| CC(C)=CCCC(C)=CC=O (mixture of isomers) | YqjM (Old Yellow Enzyme homolog) | ene-reductase biotransformation, substrate |  |  |  | conversion | 57 to 70% |

For quick reference, copied from above:
| Compound | target or system | assay | system | conditions | scale | quantity | result |
| --- | --- | --- | --- | --- | --- | --- | --- |
| Cc1cccc2cc3ccc4cccc5ccc(c12)c3c45 | Ahr (Rattus norvegicus, UniProt P41738) |  |  | 50% effect level | relative to: benzo[a]pyrene | relative potency | 1.2 |
| Cc1cc(NC(=O)c2cccc(NC(=O)/C=C/CN(C)C)c2)ccc1Nc1nccc(-c2cccnc2)n1 | TTK (Homo sapiens, UniProt P33981) | enzyme activity, inhibitor |  | 1 µM | relative to: vehicle | remaining activity | 46% |
